Measurements gathered from unrelated publications.
± marks the error that the study gave.
BIRC3 BIR3: Baculoviral IAP repeat-containing protein 3, BIR3 (BIRC3, Homo sapiens, UniProt Q13489)
CA5A: Carbonic anhydrase 5A, mitochondrial (CA5A, Homo sapiens, UniProt P35218)
NPY1R Q120N: Neuropeptide Y receptor type 1 (NPY1R, Homo sapiens, UniProt P25929, Q120N)

Compound	target or system	test	system	setting	how to read	quantity	result
O=C(O[C@H](CO)C(F)(F)F)N1C[C@@H]2[C@H](C1)[C@H]2c1ccn(-c2ccc(F)nc2)n1	Sodium-dependent noradrenaline transporter (SLC6A2, Homo sapiens, UniProt P23975)	ligand displacement, radioligand				Ki	4080 nM
COc1cc(CNC(=O)C[C@H](C)CCC=C(C)C)ccc1OCc1cn(-c2cccc(C(F)(F)F)c2)nn1	UACC-257 melanoma cells	SRB		10 µM, 48 h		growth percent	104%
CN[C@@H](C)C(=O)N[C@H]1CN(C(=O)Cc2ccccc2)CC[C@H]2CC[C@@H](C(=O)NCc3ccccc3Br)N2C1=O	BIRC3 BIR3	ligand displacement, FP				Ki	58.1 nM
CCCCCCCC[C@@H]1[C@H](O)[C@@H](O)[C@H](O)[C@@H](CO)N1C(=S)NCCCC	Alpha-galactosidase (Coffea arabica, UniProt Q42656)	enzyme activity, inhibitor, absorbance				Ki	508000 nM
COCCOc1cc2ncnc(Nc3cccc(-c4cn(Cc5ccc(C(=O)NCCc6ccc(S(N)(=O)=O)cc6)cc5)nn4)c3)c2cc1OCCOC	CA5A	enzyme activity, inhibitor, stopped-flow				Ki	6.2 nM
CC[C@H](C)[C@H](NC(C)=O)C(=O)N[C@H](C(=O)N[C@H](C(=O)N[C@@H](CN)C(=O)N[C@H](C=O)CC(=O)O)C(C)C)[C@@H](C)O	Caspase-7 (CASP7, Homo sapiens, UniProt P55210)	enzyme activity, inhibitor, fluorescence		pH 7		Ki	24500 nM
CCC[C@H]1CC[C@H](c2ccc(NC(=S)NC[C@@H]3[C@@H](O)[C@@H](O)[C@H]4[C@H](O)CCCN43)cc2)CC1	Alpha-mannosidase 2 (Homo sapiens, UniProt Q16706)	inhibitor, fluorogenic		together with: 4-methylumbelliferyl α-mannoside		Ki	30 nM
N=C(N)NCCC[C@@H](NC(=O)CCCCCNC(=O)c1ccc(-c2ccnc(N)n2)s1)C(=O)NCCCCCC(=O)N[C@H](CCCNC(=N)N)C(=O)N[C@H](CCCNC(=N)N)C(=O)N[C@H](CCCNC(=N)N)C(=O)N[C@H](CCCNC(=N)N)C(=O)N[C@H](CCCNC(=N)N)C(=O)N[C@H](CCCNC(=N)N)C(=O)N[C@H](CCCCN)C(N)=O	cGMP-dependent protein kinase 1 (PRKG1, Bos taurus, UniProt P00516)	enzyme activity, inhibitor, radiometric				Ki	2.27 nM
[64Cu+2].c1ccc(CNCc2ccc(CN3CCCN4CCNCCCN(CC4)CC3)cc2)nc1	CXCR4		NOD/SCID mouse, tumour	90 min	reference: U87-stb-CXCR4 over U87	uptake ratio	4.43 ± 1.38
O=C1c2c(O)cccc2[C@H]([C@@H]2O[C@H](CO)[C@@H](O)[C@H](O)[C@H]2O)c2cc(CO)cc(O)c21	Indoleamine 2,3-dioxygenase 1 (IDO1, Homo sapiens, UniProt P14902)	uncompetitive inhibitor, Lineweaver-Burk plot				Ki	68600 nM
CCOC(=O)CNC(=O)/N=C(/N)NCCC[C@@H](NC(=O)C(c1ccccc1)c1ccccc1)C(=O)NCc1ccc(O)cc1	NPY1R Q120N	antagonist	human cells			Kb	0.1 nM
CC1(C)OB(c2ccc(/N=N/c3ccccc3)cc2)OC1(C)C	Calcium release-activated calcium channel protein 1 (ORAI1, Homo sapiens, UniProt Q96D31)	ion current, inhibitor, patch clamp				Ki	4960 nM
O=C(Nc1cccc(-c2nn[nH]n2)c1)c1cc(-c2cccs2)cc(C(F)(F)F)c1	Beta-lactamase CTX-M-27 (Escherichia coli, UniProt Q840M4)	enzyme activity, inhibitor, absorbance		pH 7		Ki	5500 nM
CN[C@@H](C)C(=O)N[C@H]1CN(C(=O)Cc2ccccc2)CC[C@H]2CC[C@@H](C(=O)NCc3ccc(C(F)(F)F)cc3)N2C1=O	Baculoviral IAP repeat-containing protein 2, BIR3 (BIRC2, Homo sapiens, UniProt Q13490)	ligand displacement, FP				Ki	8.8 nM
Cc1nc(C)c(C=[N+]([O-])C(C)(C)C)nc1C		Western blot, measured: PGC-1α	primary midbrain neurons, rat	100 µM, together with: 20 µM MPP+		protein level increase	37.4%
CCC(=O)NCCCCNC(=O)NCc1ccc(CNC(=O)[C@@H](CCCNC(=N)N)NC(=O)C(c2ccccc2)c2ccccc2)cc1	NPY1R Q120N	antagonist	human cells			Kb	118 nM
CN[C@@H](C)C(=O)N[C@H]1CN(C(=O)Cc2ccccc2)CC[C@H]2CC[C@@H](C(=O)NCc3ccccc3Cl)N2C1=O	BIRC3 BIR3	ligand displacement, FP				Ki	60.9 nM
CC(C)C[C@H](NC(=O)N(CCCNC(=N)N)NC(=O)[C@H](Cc1ccc(O)cc1)NC(=O)CCCCCCC(=O)N[C@@H](Cc1ccc(O)cc1)C(=O)NN(CCCNC(=N)N)C(=O)N[C@@H](CC(C)C)C(=O)N[C@@H](CCCNC(=N)N)C(=O)N[C@@H](Cc1ccc(O)cc1)C(N)=O)C(=O)N[C@@H](CCCNC(=N)N)C(=O)N[C@@H](Cc1ccc(O)cc1)C(N)=O	Neuropeptide Y receptor type 5 (NPY5R, Homo sapiens, UniProt Q15761)	ligand displacement, radioligand				Ki	2100 nM
Cc1cc(N)nc(C[C@H]2CNC[C@H]2OCCCCCc2cccc(F)c2)c1	Nitric oxide synthase 3 (NOS3, Bos taurus, UniProt P29473)	enzyme activity, inhibitor		pH 7.4		Ki	34000 nM
COc1cc(CNC(=O)C[C@H](C)CCC=C(C)C)ccc1OCc1cn(-c2ccc(Cl)cc2Cl)nn1	UACC-257 melanoma cells	SRB		10 µM, 48 h		growth percent	92%
COCCOc1cc2ncnc(Nc3cccc(-c4cn(Cc5ccc(C(=O)Nc6ccc(S(N)(=O)=O)cc6)cc5)nn4)c3)c2cc1OCCOC	CA5A	enzyme activity, inhibitor, stopped-flow				Ki	98 nM
[64Cu+2].c1cnc(CNCc2ccc(CN3CCCN4CCNCCCN(CC4)CC3)cc2)nc1	CXCR4 (human)		NOD/SCID mice, U87 xenografts, small intestine	30 min post-injection		tissue uptake	8.45 ± 5.25 %ID/g

Repeated from above:
Compound	target or system	test	system	setting	how to read	quantity	result
O=C1c2c(O)cccc2[C@H]([C@@H]2O[C@H](CO)[C@@H](O)[C@H](O)[C@H]2O)c2cc(CO)cc(O)c21	Indoleamine 2,3-dioxygenase 1 (IDO1, Homo sapiens, UniProt P14902)	uncompetitive inhibitor, Lineweaver-Burk plot				Ki	68600 nM
CN[C@@H](C)C(=O)N[C@H]1CN(C(=O)Cc2ccccc2)CC[C@H]2CC[C@@H](C(=O)NCc3ccc(C(F)(F)F)cc3)N2C1=O	Baculoviral IAP repeat-containing protein 2, BIR3 (BIRC2, Homo sapiens, UniProt Q13490)	ligand displacement, FP				Ki	8.8 nM
